{"data": "Measurements pooled from the literature", "Rhomboid protease AarA": "Rhomboid protease AarA (Providencia stuartii, UniProt P46116)", "PPARG": "Peroxisome proliferator-activated receptor gamma (PPARG, Homo sapiens, UniProt P37231)", "HDAC1": "Histone deacetylase 1 (HDAC1, Homo sapiens, UniProt Q13547)", "PPARG ligand-binding domain": "Peroxisome proliferator-activated receptor gamma, ligand-binding domain (PPARG, Homo sapiens, UniProt P37231)", "note": "Each line is one published result; not all experiments were run side by side. Several values in a cell are separate wells, animals, samples, runs or records. ± gives the spread as reported.", "chain of UniProt P46116 (whole entry, looked up)": "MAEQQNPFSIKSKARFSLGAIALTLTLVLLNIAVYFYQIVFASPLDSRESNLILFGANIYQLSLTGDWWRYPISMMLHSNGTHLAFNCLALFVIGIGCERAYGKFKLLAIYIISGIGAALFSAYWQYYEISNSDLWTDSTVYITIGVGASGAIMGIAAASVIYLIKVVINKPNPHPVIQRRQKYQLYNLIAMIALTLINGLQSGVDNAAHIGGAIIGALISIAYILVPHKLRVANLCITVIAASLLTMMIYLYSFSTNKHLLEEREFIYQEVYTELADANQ", "chain of UniProt P51681 (whole entry, unmodified, looked up)": "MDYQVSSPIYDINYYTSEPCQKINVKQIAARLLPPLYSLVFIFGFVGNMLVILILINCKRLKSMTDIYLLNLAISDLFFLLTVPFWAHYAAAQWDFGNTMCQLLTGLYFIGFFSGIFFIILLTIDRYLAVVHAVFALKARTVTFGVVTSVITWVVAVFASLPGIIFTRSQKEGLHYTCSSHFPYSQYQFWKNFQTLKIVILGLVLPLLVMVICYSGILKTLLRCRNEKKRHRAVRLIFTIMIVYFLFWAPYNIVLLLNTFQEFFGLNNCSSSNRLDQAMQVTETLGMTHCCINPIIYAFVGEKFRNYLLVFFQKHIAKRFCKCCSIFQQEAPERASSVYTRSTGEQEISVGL", "chain of UniProt P37231 (whole entry, looked up)": "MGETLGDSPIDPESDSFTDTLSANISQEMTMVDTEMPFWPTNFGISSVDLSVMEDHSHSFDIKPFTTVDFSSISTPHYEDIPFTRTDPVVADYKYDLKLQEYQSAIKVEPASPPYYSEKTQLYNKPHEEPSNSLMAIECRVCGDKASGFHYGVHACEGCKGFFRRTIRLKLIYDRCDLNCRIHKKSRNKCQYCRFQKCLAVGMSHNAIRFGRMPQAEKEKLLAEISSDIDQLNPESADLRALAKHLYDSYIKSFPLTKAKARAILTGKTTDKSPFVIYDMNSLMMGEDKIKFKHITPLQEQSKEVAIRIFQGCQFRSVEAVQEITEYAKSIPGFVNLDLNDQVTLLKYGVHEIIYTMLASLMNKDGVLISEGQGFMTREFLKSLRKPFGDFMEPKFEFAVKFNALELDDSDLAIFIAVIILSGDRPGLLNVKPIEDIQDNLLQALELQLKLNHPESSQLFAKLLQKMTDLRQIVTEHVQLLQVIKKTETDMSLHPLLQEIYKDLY", "chain of UniProt Q13547 (whole entry, looked up)": "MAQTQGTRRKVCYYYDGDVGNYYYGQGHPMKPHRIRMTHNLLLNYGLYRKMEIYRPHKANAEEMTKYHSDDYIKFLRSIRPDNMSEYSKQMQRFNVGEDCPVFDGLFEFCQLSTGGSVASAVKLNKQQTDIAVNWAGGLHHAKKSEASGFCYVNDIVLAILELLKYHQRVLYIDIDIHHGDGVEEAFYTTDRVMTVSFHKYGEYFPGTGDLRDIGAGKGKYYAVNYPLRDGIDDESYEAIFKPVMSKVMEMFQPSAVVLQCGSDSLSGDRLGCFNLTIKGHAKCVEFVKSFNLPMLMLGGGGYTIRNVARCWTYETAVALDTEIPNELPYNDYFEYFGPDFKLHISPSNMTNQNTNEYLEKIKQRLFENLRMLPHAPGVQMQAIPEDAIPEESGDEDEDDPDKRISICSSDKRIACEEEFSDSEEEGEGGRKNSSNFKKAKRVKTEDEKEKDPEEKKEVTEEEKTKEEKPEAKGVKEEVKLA", "chain of UniProt Q9NXS2 (whole entry, looked up)": "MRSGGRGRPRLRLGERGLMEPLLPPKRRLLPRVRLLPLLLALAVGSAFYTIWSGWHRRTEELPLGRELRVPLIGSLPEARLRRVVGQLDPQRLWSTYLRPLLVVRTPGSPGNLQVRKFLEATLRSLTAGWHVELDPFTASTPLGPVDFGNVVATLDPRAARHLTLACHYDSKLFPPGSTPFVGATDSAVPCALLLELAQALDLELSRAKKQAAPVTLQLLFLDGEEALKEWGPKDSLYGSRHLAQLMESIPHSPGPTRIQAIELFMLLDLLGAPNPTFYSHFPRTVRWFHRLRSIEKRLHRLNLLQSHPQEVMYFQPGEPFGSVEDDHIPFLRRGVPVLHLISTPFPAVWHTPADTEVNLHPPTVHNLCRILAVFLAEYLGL", "chain of UniProt P29466 (whole entry, looked up)": "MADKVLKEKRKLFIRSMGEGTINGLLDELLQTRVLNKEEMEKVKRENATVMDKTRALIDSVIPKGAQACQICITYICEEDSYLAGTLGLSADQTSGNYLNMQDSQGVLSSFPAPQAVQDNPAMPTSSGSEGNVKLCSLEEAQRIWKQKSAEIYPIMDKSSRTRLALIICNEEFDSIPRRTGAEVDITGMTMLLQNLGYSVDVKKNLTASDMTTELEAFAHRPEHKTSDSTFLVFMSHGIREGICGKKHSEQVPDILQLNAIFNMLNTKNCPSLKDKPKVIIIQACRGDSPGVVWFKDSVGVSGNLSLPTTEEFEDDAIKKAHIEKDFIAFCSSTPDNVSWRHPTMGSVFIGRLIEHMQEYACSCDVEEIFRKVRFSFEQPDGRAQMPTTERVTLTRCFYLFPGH", "chain of UniProt Q9C0B1 (whole entry, looked up)": "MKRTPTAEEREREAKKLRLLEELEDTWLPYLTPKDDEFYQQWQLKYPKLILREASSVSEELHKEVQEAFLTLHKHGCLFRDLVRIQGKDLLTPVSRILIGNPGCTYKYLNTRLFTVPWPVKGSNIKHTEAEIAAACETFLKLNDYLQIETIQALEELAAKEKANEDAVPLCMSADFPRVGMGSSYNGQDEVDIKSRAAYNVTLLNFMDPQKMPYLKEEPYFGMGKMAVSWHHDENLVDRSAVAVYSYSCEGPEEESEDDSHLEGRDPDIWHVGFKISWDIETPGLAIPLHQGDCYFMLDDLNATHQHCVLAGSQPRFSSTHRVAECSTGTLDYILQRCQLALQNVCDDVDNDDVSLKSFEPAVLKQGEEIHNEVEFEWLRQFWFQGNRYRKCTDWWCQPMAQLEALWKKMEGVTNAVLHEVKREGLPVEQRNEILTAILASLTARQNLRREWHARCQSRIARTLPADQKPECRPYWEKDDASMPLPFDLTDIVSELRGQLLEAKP", "chain of UniProt O15297 (whole entry, looked up)": "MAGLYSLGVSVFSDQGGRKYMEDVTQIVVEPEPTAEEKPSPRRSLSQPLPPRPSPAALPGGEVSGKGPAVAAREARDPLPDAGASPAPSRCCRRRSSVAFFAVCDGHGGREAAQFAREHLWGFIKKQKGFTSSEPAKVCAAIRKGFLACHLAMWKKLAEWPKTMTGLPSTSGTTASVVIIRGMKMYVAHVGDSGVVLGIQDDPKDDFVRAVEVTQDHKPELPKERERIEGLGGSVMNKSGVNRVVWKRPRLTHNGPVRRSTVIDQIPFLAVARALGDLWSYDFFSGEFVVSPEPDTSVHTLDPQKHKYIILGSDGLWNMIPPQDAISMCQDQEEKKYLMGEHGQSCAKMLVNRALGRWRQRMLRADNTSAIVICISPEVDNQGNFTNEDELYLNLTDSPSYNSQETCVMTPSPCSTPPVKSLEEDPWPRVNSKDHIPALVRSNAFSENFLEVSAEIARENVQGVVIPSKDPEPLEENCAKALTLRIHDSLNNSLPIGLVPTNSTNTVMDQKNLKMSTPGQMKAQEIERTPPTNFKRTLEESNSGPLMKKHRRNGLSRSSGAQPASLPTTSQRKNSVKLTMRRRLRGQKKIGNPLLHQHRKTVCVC", "chain of UniProt P43358 (whole entry, looked up)": "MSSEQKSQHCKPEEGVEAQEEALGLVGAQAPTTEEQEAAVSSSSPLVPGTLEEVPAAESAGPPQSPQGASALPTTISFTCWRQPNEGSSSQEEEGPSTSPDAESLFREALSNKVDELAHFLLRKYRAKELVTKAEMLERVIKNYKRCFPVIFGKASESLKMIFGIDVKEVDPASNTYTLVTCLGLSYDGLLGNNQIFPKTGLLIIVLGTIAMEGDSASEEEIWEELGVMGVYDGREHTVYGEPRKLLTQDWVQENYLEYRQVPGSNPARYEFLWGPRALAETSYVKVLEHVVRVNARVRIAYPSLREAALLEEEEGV", "chain of UniProt Q9NQR1 (whole entry, unmodified, looked up)": "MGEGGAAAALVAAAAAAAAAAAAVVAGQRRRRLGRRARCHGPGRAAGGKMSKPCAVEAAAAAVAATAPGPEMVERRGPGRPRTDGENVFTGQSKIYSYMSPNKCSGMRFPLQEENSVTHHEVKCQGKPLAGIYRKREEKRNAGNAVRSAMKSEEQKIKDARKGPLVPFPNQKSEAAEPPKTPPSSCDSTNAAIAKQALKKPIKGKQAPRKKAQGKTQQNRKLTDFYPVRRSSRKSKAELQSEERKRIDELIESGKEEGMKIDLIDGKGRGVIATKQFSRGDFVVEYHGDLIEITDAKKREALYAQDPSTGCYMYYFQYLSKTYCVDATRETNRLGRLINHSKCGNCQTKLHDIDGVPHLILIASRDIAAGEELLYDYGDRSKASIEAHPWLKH", "chain of UniProt Q9HCP0 (whole entry, looked up)": "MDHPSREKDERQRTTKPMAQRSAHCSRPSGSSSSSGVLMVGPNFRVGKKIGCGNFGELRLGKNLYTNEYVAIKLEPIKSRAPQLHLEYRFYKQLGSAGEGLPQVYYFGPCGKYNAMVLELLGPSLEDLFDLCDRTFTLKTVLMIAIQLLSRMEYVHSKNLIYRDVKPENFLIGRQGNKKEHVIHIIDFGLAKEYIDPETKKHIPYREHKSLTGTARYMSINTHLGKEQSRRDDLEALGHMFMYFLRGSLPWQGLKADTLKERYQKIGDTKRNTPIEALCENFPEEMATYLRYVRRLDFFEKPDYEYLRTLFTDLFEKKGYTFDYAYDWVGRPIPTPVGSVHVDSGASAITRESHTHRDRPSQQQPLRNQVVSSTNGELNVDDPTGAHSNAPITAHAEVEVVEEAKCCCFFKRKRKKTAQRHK", "chain of UniProt P18421 (whole entry, looked up)": "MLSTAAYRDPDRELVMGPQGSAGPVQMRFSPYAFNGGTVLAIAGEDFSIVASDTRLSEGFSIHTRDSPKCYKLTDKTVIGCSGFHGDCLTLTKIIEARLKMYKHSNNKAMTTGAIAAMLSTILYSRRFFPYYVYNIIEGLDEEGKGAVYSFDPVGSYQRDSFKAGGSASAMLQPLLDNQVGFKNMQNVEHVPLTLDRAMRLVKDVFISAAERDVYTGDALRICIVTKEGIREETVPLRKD"}
{"Compound": "Cc1onc(-c2ccccc2)c1CNC(=O)C(C(F)(F)F)C(F)(F)F", "tested on": "Rhomboid protease AarA", "test": "enzyme activity, inhibitor, fluorescence", "measurement": "IC50", "result": "12000 nM"}
{"Compound": "Cc1c(Cc2cc(F)cc(OC(C)(C)C(=O)O)c2)c2ccc(C(=O)N[C@@H](C)c3ccc(C(C)(C)C)cc3)cc2n1CC1CCC1", "tested on": "PPARG", "test": "ligand displacement, TR-FRET", "measurement": "IC50", "result": "4.09 nM"}
{"Compound": "CCOC(=O)/C=C/C(=O)[C@H](CC(C)C)NC(=O)[C@H](Cc1ccccc1)NC(=O)[C@H](Cc1ccccc1)n1cc(CCCCC2=C3C(C)=CC(C)=[N+]3[B-](F)(F)n3c(C)cc(C)c32)nn1 (mixture of isomers)", "tested on": "Procathepsin L (CTSL, Homo sapiens, UniProt P07711)", "test": "enzyme activity, inhibitor", "measurement": "IC50", "result": "3140 nM"}
{"Compound": "Cc1nc2c(F)cc(-c3nc(Nc4ccc(C(=O)NCCCCCCC(=O)NO)cc4)ncc3F)cc2n1C(C)C", "tested on": "HDAC1", "test": "enzyme activity, inhibitor", "measurement": "IC50", "result": "11 nM"}
{"Compound": "CCOC(=O)C[C@@H](C#N)NC(=O)[C@@H]1CCCN1C(=O)[C@@H](NC(=O)c1ccc(N)c(Cl)c1)C(C)(C)C", "tested on": "Caspase-1 (CASP1, Homo sapiens, UniProt P29466)", "test": "enzyme activity, inhibitor", "measurement": "IC50", "result": "7.66 nM"}
{"Compound": "CC(CC1CC2CCC1C2)Nc1nn2c(=O)ccnc2s1 (stereo not shown)", "tested on": "Protein phosphatase 1D (PPM1D, Homo sapiens, UniProt O15297)", "test": "enzyme activity, inhibitor", "measurement": "IC50", "result": "11500 nM"}
{"Compound": "Cc1c(Cc2cncc(O[C@H](C)C(=O)O)c2)c2ccc(C(=O)N[C@@H](C)c3ccc(C(C)(C)C)cc3)cc2n1CC1CCC1", "tested on": "PPARG", "test": "ligand displacement, TR-FRET", "measurement": "IC50", "result": "723 nM"}
{"Compound": "COC1CN([C@H]2CC[C@H]([C@@]3(C)Oc4c(Cl)cc(C(=O)NCc5c(SC)cc(C)[nH]c5=O)c(C)c4O3)CC2)C1", "test": "RNA-seq, item: NRIP3", "test system": "human, whole blood", "conditions": "dose not given, 24 h", "scale": "baseline: pretreatment baseline", "measurement": "log2 fold change", "result": 4.56}
{"Compound": "COc1ccc(Nc2cc(NC3CC3)n3ncc(C#N)c3n2)cc1", "tested on": "Phosphorylase b kinase gamma catalytic chain, liver/testis isoform (PHKG2, Homo sapiens, UniProt P15735)", "test": "inhibitor", "measurement": "IC50", "result": "> 10000 nM"}
{"Compound": "COc1cccc([C@H](C)NC(=O)c2ccc3c(Cc4cccc(OC(C)(C)C(=O)O)c4)c(C)n(C)c3c2)c1", "tested on": "PPARG", "test": "ligand displacement, TR-FRET", "measurement": "IC50", "result": "6 nM"}
{"Compound": "CCOc1ccccc1CNC(=O)C(C(F)(F)F)C(F)(F)F", "tested on": "Rhomboid protease AarA", "test": "enzyme activity, inhibitor, fluorescence", "measurement": "IC50", "result": "7000 nM"}
{"Compound": "CN1CCN(C(=O)c2ccc(-c3cc4nccc(-c5ccc6cnccc6c5)c4o3)cc2)CC1", "tested on": "Phosphatidylinositol 4-kinase alpha (PI4KA, Homo sapiens, UniProt P42356)", "test": "enzyme activity, inhibitor", "measurement": "IC50", "result": "3000 nM"}
{"Compound": "CC[C@H](C)[C@@H]1NC(=O)[C@H](Cc2ccc(O)cc2)NC(=O)CSC[C@@H](C(N)=O)NC(=O)[C@H](CC(N)=O)NC(=O)[C@H](Cc2c[nH]cn2)NC(=O)[C@H](Cc2ccc(O)cc2)NC(=O)[C@H](CC(=O)O)NC(=O)[C@H](Cc2ccc(O)cc2)NC(=O)[C@H](CC(C)C)NC(=O)[C@H](CCCCN)NC1=O", "tested on": "Melanoma-associated antigen 4, MAGE homology domain (Homo sapiens, UniProt P43358)", "test": "binding, inhibitor, TR-FRET displacement", "conditions": "added: Alexa647-MTP-1", "measurement": "IC50", "result": "18.9 ± 7.1 nM"}
{"Compound": "Cc1nnc(-c2ccc(CC(=O)NCCOCCOCCOCCOCC(=O)NC(CCN3C4CCC3CC(n3c(C)nnc3C(C)C)C4)c3ccccc3)cc2)nn1 (stereo not shown)", "tested on": "C-C chemokine receptor type 5 (CCR5, Homo sapiens, UniProt P51681, Y184K)", "test": "calcium mobilization, antagonist", "test system": "HEK293T cells expressing CCR5", "conditions": "added: PSC-RANTES", "measurement": "IC50", "result": "6.38 nM and 11.7 nM and 5.45 nM"}
{"Compound": "COc1ccc(NC(=O)C(C(F)(F)F)C(F)(F)F)cc1", "tested on": "Rhomboid protease AarA", "test": "enzyme activity, inhibitor, fluorescence", "measurement": "IC50", "result": "22000 nM"}
{"Compound": "O=C(CCNC(=O)CNC(=O)CC(c1ccccc1)(c1ccccc1)c1ccccc1)NC[C@@H]1CCCN(Cc2ccc3cc(F)ccc3c2)C1", "tested on": "Muscarinic acetylcholine receptor M4 (CHRM4, Homo sapiens, UniProt P08173)", "test": "ligand displacement, radioligand", "conditions": "cell membranes", "measurement": "IC50", "result": "> 30000 nM"}
{"Compound": "O=c1sn(Cc2ccccc2)c(=O)n1C1CC1", "tested on": "Alpha-ketoglutarate-dependent dioxygenase FTO (FTO, Homo sapiens, UniProt Q9C0B1)", "test": "enzyme activity, inhibitor", "measurement": "IC50", "result": "> 100000 nM"}
{"Compound": "Cc1ccc(N=C2CC(=O)c3sc(C)nc3C2=O)cc1", "tested on": "N-lysine methyltransferase KMT5A (KMT5A, Homo sapiens, UniProt Q9NQR1, C311S)", "test": "enzyme activity, radiometric filter", "conditions": "8 h, 1 µM enzyme C270S variant, added: 0.75 µM SAM, 1.5 µM H4K20 peptide", "measurement": "IC50", "result": "6000 nM"}
{"Compound": "Cc1nn(-c2cccc(N)c2)c(=O)c2cnc(Nc3ccc(N4CCNCC4)cc3)nc12", "tested on": "Casein kinase I isoform gamma-1 (CSNK1G1, Homo sapiens, UniProt Q9HCP0)", "test": "enzyme activity, inhibitor", "measurement": "IC50", "result": "> 10000 nM"}
{"Compound": "Cc1nc2c(F)cc(-c3nc(Nc4ccc(C(=O)NCCCCC(=O)NO)cc4)ncc3F)cc2n1C(C)C", "tested on": "HDAC1", "test": "enzyme activity, inhibitor", "measurement": "IC50", "result": "79 nM"}
{"Compound": "O=C(Nc1ccccc1C(=O)N1CCCC1)C(C(F)(F)F)C(F)(F)F", "tested on": "Rhomboid protease AarA", "test": "enzyme activity, inhibitor, fluorescence", "measurement": "IC50", "result": "18000 nM"}
{"Compound": "O=C(NCC(F)c1ccc(Cl)cc1Cl)c1cc(Cl)nnc1Oc1cccc(C2CC2)c1 (stereo not shown)", "tested on": "serine palmitoyltransferase (Zymoseptoria tritici, UniProt F9X349+F9XMN6)", "measurement": "IC50", "result": "343 ± 12 nM"}
{"Compound": "Cc1c(Cc2cccc(OC(C)(C)C(=O)O)c2)c2ccc(C(=O)N[C@@H](C)c3cccc(C(C)(C)C)c3)cc2n1CC1CC1", "tested on": "PPARG", "test": "ligand displacement, TR-FRET", "measurement": "IC50", "result": "17 nM"}
{"Compound": "O=C1CC(c2ccccc2)N1S(=O)(=O)c1cccc(Cl)c1 (stereo not shown)", "tested on": "Rhomboid protease AarA", "test": "enzyme activity, inhibitor, fluorescence", "measurement": "IC50", "result": "20000 nM"}
{"Compound": "Cn1cc2c(n1)CN(C(=O)Nc1nc(-c3ccc(F)cc3)ccc1N)C2", "tested on": "Lysine-specific histone demethylase 1A, with CoREST (KDM1A, Homo sapiens, UniProt O60341)", "test": "demethylase activity, inhibitor", "conditions": "LSD1-CoREST complex", "measurement": "IC50", "result": "> 150000 nM"}
{"Compound": "Cc1c(Cc2ccc(OC(C)(C)C(=O)O)cc2)c2ccc(C(=O)N[C@@H](C)c3ccc(C(C)C)cc3)cc2n1C", "tested on": "PPARG ligand-binding domain", "test": "reporter gene, luciferase reporter", "test system": "HEK293T, Gal4-PPARγ LBD", "measurement": "IC50", "result": "1590 nM"}
{"Compound": "Cc1cncn1Cc1ccc(Oc2cccc(Cl)c2)cc1", "tested on": "Glutaminyl-peptide cyclotransferase-like protein (Homo sapiens, UniProt Q9NXS2)", "measurement": "IC50", "result": "110 nM"}
{"Compound": "Cc1c(Cc2cccc(OC(C)(C)C(=O)O)c2)c2ccc(C(=O)N[C@@H](C)c3cccc(C(C)(C)C)c3)cc2n1C", "tested on": "PPARG ligand-binding domain", "test": "reporter gene, luciferase reporter", "test system": "HEK293T, Gal4-PPARγ LBD", "measurement": "IC50", "result": "150 nM"}
{"Compound": "CCN(CC)CC(=O)Nc1cccc(-n2cc(-c3ccc4ccc(-c5cn(-c6cccc(NC(=O)CN(CC)CC)c6)nn5)cc4c3)nn2)c1", "tested on": "Mitogen-activated protein kinase 1 (MAPK1, Homo sapiens, UniProt P28482)", "test": "enzyme activity, inhibitor", "measurement": "IC50", "result": "> 10000 nM"}
{"Compound": "Cc1c(Cc2ccc(Cl)c(OC(C)C(=O)O)c2)c2ccc(C(=O)NCc3ccc(C(C)(C)C)cc3)cc2n1CC(C)C (stereo not shown)", "tested on": "PPARG ligand-binding domain", "test": "reporter gene, luciferase reporter", "test system": "HEK293T, Gal4-PPARγ LBD", "measurement": "IC50", "result": "6000 nM"}
{"Compound": "CC(C)(C)OC(=O)c1cccc(NC(=O)C(C(F)(F)F)C(F)(F)F)c1", "tested on": "Rhomboid protease AarA", "test": "enzyme activity, inhibitor, fluorescence", "measurement": "IC50", "result": "6300 nM"}
{"Compound": "Cc1c(Cc2cccc(OC(C)C(=O)O)c2)c2ccc(C(=O)N[C@@H](C)c3cccc(C(C)C)c3)cc2n1C (stereo partly shown)", "tested on": "PPARG ligand-binding domain", "test": "reporter gene, luciferase reporter", "test system": "HEK293T, Gal4-PPARγ LBD", "measurement": "IC50", "result": "2850 nM"}
{"Compound": "O=C(Nc1ccc(Cc2ccccc2)cc1)C(C(F)(F)F)C(F)(F)F", "tested on": "Rhomboid protease AarA", "test": "enzyme activity, inhibitor, fluorescence", "measurement": "IC50", "result": "8100 nM"}
{"Compound": "Cc1ccc(CNC(=O)[C@H](CCc2ccccc2)NC(=O)[C@H](CCc2ccccc2)NC(=O)[C@@H](N)Cc2ccncc2)cc1", "tested on": "Psmb1/Psmb8 (Rattus norvegicus, UniProt P18421+P28064)", "test": "enzyme activity, inhibitor", "conditions": "added: Ac-ANW-aminocoumarin, PA28α 12 nM", "measurement": "IC50", "result": "880 nM"}
{"note": "Some of these lines once more:"}
{"Compound": "O=C1CC(c2ccccc2)N1S(=O)(=O)c1cccc(Cl)c1 (stereo not shown)", "tested on": "Rhomboid protease AarA", "test": "enzyme activity, inhibitor, fluorescence", "measurement": "IC50", "result": "20000 nM"}
{"Compound": "O=C(CCNC(=O)CNC(=O)CC(c1ccccc1)(c1ccccc1)c1ccccc1)NC[C@@H]1CCCN(Cc2ccc3cc(F)ccc3c2)C1", "tested on": "Muscarinic acetylcholine receptor M4 (CHRM4, Homo sapiens, UniProt P08173)", "test": "ligand displacement, radioligand", "conditions": "cell membranes", "measurement": "IC50", "result": "> 30000 nM"}
